Measured values pooled from the literature.
Each line is one published result; not all experiments were run side by side. Several values in a cell are separate wells, animals, samples, runs or records. ± gives the spread as reported.

Compound | assay | system | setting | scale | measurement | value
CC(=O)c1c(C)c2cnc(Nc3ccc(N4CCNCC4)cn3)nc2n(C2CCCC2)c1=O |  | C57BL/6 mice, blood | 25 mg/kg, P25, dosed P10 to P24 |  | AST activity | 86 ± 5 U/liter
CC[C@H](C)[C@H](NC(=O)CN)C(=O)N[C@@H](CCCNC(=N)N)C(=O)N[C@@H](CCCCN)C(=O)N[C@@H](Cc1c[nH]c2ccccc12)C(=O)N[C@@H](Cc1ccccc1)C(=O)N[C@@H](CCCCN)C(=O)N[C@@H](CCCCN)C(=O)N[C@@H](C)C(=O)N[C@@H](C)C(=O)N[C@@H](Cc1c[nH]cn1)C(=O)N[C@H](C(=O)NCC(=O)N[C@@H](CCCCN)C(=O)N[C@@H](CCCCN)C(=O)N[C@H](C(=O)NCC(=O)N[C@@H](CCCCN)C(=O)N[C@H](C(=O)N[C@@H](C)C(=O)N[C@@H](CC(C)C)C(=O)N[C@@H](CC(N)=O)C(=O)N[C@@H](C)C(=O)N[C@@H](Cc1ccc(O)cc1)C(=O)N[C@@H](CC(C)C)C(N)=O)C(C)C)C(C)C)C(C)C |  | zebrafish embryos 28 hpf, E3 medium | 1 h |  | acute toxic concentration | 5 µM
COC(=O)[C@@H](NC(=O)c1nn(Cc2ccc(F)cc2)c2cc(OCCCCNC(=N)N)ccc12)C(C)(C)C |  | mouse | intraperitoneal | relative to: compound over FUB, lower brain exposure | Kp,uu brain ratio | > 2400 fold
CN1Cc2cc(Cl)ccc2-n2c(nnc2C2CCN(c3cccc([18F])n3)CC2)C1 | PET two-tissue compartment model | rhesus monkey, occipital cortex | intravenous, dose not given, 60 min scan, baseline scan |  | total volume of distribution | 0.89 ± 0.31 mL/cm3
C/C(=N\OCCCN1CCCCC1)c1ccc(C(F)(F)F)cc1 |  | C57BL/6 mouse, brain | oral, 10 mg/kg, 4 h |  | brain concentration | 2610 ± 285 ng/g
CC(C)[C@@H]1NC(=O)CNC(=O)[C@H](CC(N)=O)NC(=O)[C@H](CCCNC(=N)N)NC(=O)[C@H](Cc2ccc(O)cc2)NC(=O)[C@H](C(C)C)NC(=O)[C@@H](NC(=O)[C@@H](NC(=O)[C@H](CC(N)=O)NC(=O)[C@H](Cc2c[nH]c3ccccc23)NC(=O)[C@H](C)NC(=O)[C@H](Cc2ccccc2)NC(=O)CNC(=O)[C@H](CCCCN)NC(=O)[C@H](Cc2ccccc2)NC(=O)[C@H](Cc2ccccc2)NC(=O)[C@H](CCCCN)NC(=O)OCC2c3ccccc3-c3ccccc32)C(C)C)CSSC[C@@H](C(=O)N[C@@H](Cc2c[nH]cn2)C(=O)N[C@@H](CCCNC(=N)N)C(=O)N[C@@H](CCCNC(=N)N)C(=O)N[C@@H](C)C(=O)N[C@@H](CC(N)=O)C(N)=O)NC(=O)[C@H](C(C)C)NC(=O)[C@H](CCCNC(=N)N)NC1=O |  | ICR mouse, blood | intramammary, 5 mg/kg, day 5, 3 d dosing |  | glucose | 1.63 ± 0.07 mmol/L
O=C1NC2(CC2)COc2ncc(F)cc2[C@H]2COCCN2c2ccn3ncc1c3n2 |  | Sprague-Dawley rats, female, blood | oral, 20 mg/kg/day, end of treatment, 4-week subacute toxicity |  | eosinophil percentage | 1.1 ± 0.25%
CC(C)C[C@@H](NC(=O)[C@@H](CCCNC(=N)N)NC(=O)[C@@H](Cc1c[nH]cn1)NC(=O)[C@@H](Cc1c[nH]c2ccccc12)NC(=O)[C@@H](Cc1c[nH]cn1)NC(=O)[C@@H](Cc1ccccc1)NC(=O)[C@H](NC(=O)[C@@H](Cc1ccc(O)cc1)NC(=O)CNC(=O)CNC(=O)CCOCCOCCOCCNC(=O)CN1CCN(CC(=O)O)CCN(CC(=O)O)CC1)[C@H](C)O)C(=O)N[C@H](CC(N)=O)C(=O)N1CCC[C@@H]1C(=O)O [gallium-68 labelled] | gamma counting | C57BL/6 mice, male, heart | intravenous, 1.85 MBq, 60 min |  | tissue uptake | 1.07 ± 0.21 %ID/g
CSCC[C@H](NC(=O)CNC(=O)[C@H](CCCCN)NC(=O)[C@H](CC(C)C)NC(=O)[C@@H]1CCCN1C(=O)[C@H](CO)NC(=O)[C@H](Cc1c[nH]cn1)NC(=O)[C@H](Cc1c[nH]c2ccccc12)NC(=O)[C@H](CCCNC(=N)N)NC(=O)[C@H](CC(C)C)NC(=O)[C@H](CCCNC(=N)N)NC(=O)[C@H](Cc1c[nH]c2ccccc12)NC(=O)[C@H](CS)NC(=O)CCCCCNC(=O)CN1CCN(CC(=O)O)CCN(CC(=O)O)CCN(CC(=O)O)CC1)C(=O)O [copper-64 labelled] | ex vivo biodistribution | BALB/c nude mice, brain | intravenous, dose not given, 2 h, Huh-7 tumour-bearing |  | tissue uptake | 0.17 %ID/g
O=c1c(-c2cnn(-c3ccc(Cl)cc3)c2)c(C(F)(F)F)oc2c(O)c(O)ccc12 |  | mouse | intraperitoneal, 100 mg/kg, 24 h, DMSO vehicle |  | trough concentration | 90 nM
CC(C)[C@@H]1NC(=O)[C@H](Cc2ccc(O)cc2)NC(=O)[C@H](Cc2ccccc2)NC(=O)[C@H]([C@@H](C)O)NC(=O)[C@@H](Cc2ccc(O)cc2)NC(=O)CSC[C@H](C(=O)NCCOCCOCCOCCOCCOCCOCCC(N)=O)NC(=O)[C@H](C)NC(=O)[C@H](CO)NC(=O)[C@@H]2CCC[C@@H]2NC(=O)[C@H](Cc2c[nH]cn2)NC(=O)[C@H](CCCNC(=N)N)NC(=O)[C@H](Cc2ccc(O)cc2)NC(=O)[C@H]([C@@H](C)O)NC(=O)[C@H](Cc2ccccc2)NC(=O)[C@H]([C@@H](C)O)NC(=O)[C@H](Cc2ccc(O)cc2)NC(=O)[C@H](Cc2ccccc2)NC1=O |  | simulated gastric fluid | pH 1.3, 37 °C, with: pepsin |  | time to complete degradation | < 30 min
COc1cnc2cccc(N3CCc4c(cc(Cn5ccnc5)cc4-c4cn(C)nc4C(F)(F)F)C3=O)c2c1 |  | BALB/c nude mice, MV4-11 xenograft | intraperitoneal, 100 mg/kg, day 10 |  | body weight | 22.2 g and 25.3 g and 22.3 g and 23.2 g and 25.1 g
CCCCCCCCCCCCCCCC(=O)N[C@@H](CCC(=O)NCCOCCOCCC(=O)NCCOCCOCCC(=O)NCCCC[C@H](NC(=O)[C@H](CC(=O)O)NC(=O)[C@H](CC(C)C)NC(=O)[C@H](Cc1ccc(O)cc1)NC(=O)[C@H](CCCCN)NC(=O)[C@H](CO)NC(=O)[C@H](Cc1ccc(O)cc1)NC(=O)[C@H](CC(=O)O)NC(=O)[C@H](CO)NC(=O)[C@@H](NC(=O)[C@H](Cc1ccccc1)NC(=O)[C@@H](NC(=O)CNC(=O)[C@H](CCC(N)=O)NC(=O)[C@@H](CO)NC(=O)[C@@H](N)Cc1c[nH]cn1)[C@@H](C)O)[C@@H](C)O)C(=O)N[C@@H](CCCNC(=N)N)C(=O)N[C@@H](CCCNC(=N)N)C(=O)N[C@@H](C)C(=O)N[C@@H](CCC(N)=O)C(=O)N[C@@H](CC(=O)O)C(=O)N[C@@H](Cc1ccccc1)C(=O)N[C@H](C(=O)N[C@@H](CCC(N)=O)C(=O)N[C@@H](Cc1c[nH]c2ccccc12)C(=O)N[C@@H](CC(C)C)C(=O)N[C@@H](CC(C)C)C(=O)N[C@@H](CC(N)=O)C(=O)N[C@H](C(=O)NCC(=O)NCC(=O)N1CCC[C@H]1C(=O)N[C@@H](CO)C(=O)N[C@@H](CO)C(=O)NCC(=O)N[C@@H](C)C(=O)N1CCC[C@H]1C(=O)N1CCC[C@H]1C(=O)N1CCC[C@H]1C(=O)N[C@@H](CO)C(N)=O)[C@@H](C)O)C(C)C)C(=O)O |  | rhesus monkey, plasma | subcutaneous, 5 µg/kg |  | bioavailability | 13.1%

Repeated from above:
Compound | assay | system | setting | scale | measurement | value
COc1cnc2cccc(N3CCc4c(cc(Cn5ccnc5)cc4-c4cn(C)nc4C(F)(F)F)C3=O)c2c1 |  | BALB/c nude mice, MV4-11 xenograft | intraperitoneal, 100 mg/kg, day 10 |  | body weight | 22.2 g and 25.3 g and 22.3 g and 23.2 g and 25.1 g
